Published values of several laboratories.
Each numbered part is a random draw from the data of one study; scales do not carry over between parts. Positions count from the first letter of the parent shown.

Block 1
Target: RING finger protein unkempt homolog, zinc fingers 1-6, GST-SBP tag (UNK, Homo sapiens, UniProt Q9C0B0, residues 30-357)
Technique: RNA Bind-n-Seq
Form: RNA
Matrix: in vitro
Tested at: not given
Setting: RNA with constant flanks, human and mouse sites, ends assumed
Baseline: input RNA pool
Direction: higher = stronger binding
Endpoint: bound/input enrichment
Shared flanks, not repeated: GGGAGUUCUACAGUCCGACGAUC … CAACAGAGGAUUGAGCAUCA
Target sequence (chain): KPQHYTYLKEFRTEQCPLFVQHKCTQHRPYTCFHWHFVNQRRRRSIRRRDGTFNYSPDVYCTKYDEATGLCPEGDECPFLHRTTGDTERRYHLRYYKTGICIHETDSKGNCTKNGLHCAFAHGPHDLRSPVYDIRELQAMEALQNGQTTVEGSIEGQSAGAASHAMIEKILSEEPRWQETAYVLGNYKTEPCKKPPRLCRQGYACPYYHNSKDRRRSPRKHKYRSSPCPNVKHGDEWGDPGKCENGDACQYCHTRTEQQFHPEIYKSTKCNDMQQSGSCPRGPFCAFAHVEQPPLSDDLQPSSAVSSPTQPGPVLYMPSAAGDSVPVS
ACCCUCAAAGUGGCUGAUUUUGGUCUAAGUAAAGUUUGUUCAGCCUCUGGGCAGAACCCAGAAGAACCUGUCAGUGUAAACAAGUGUUUCCUUUCCACAGCAUGUGGAACAGAUUUUUAC: 0.137 ratio
UUUGCCCGGCACACAGCGCUCAAGCCCCACGCAUGUCCGCGCUGCGGCAAGGGUUUCAAGCACAGCUUCAACCUAGCCAACCACCUGCGCUCGCACACCGGGGAGCGGCCCUACCGCUGC: 0.259 ratio
GAUCAUAAGAAAGAGCUGAGAAAACUCAAUAUGUCUAUACUGAUUAAUUUCUUAGACCUUUUAGACAUCUUAAUAAGAAGUCCUGGGAGUAUAAAACGAGAAGAAAAGCUAGAAGAUCUU: 0.28 ratio
UUUUGCCACUUACUUUUCUGUCAUUAUAUGCUUAUUUGUUUUGUCAUUUACGUGACCAUUUGAUUCUCAAACAAAAGUUGUUCCAAACAAAAUGAUGAACUUUGAUUUGAACAGGUGCAU: 0.279 ratio
UUCAUGGAAAUGAGUGUUGAGCAGGAAAUUCUGGUGACUGGUAUCAAGGUUGUCGAUCUGCUAGCUCCCUAUGCCAAGGGUGGCAAAAUUGGGCUUUUUGGUGGUGCUGGAGUUGGCAAG: 0.386 ratio
GACACGGUGGCCUGGCUCAAAAUGGACAAGAAGGUGUUGGAUCAUGAUGUUUCGAAGGAAGAACCAGUUACCUUUCACUUCCUGGCCAAAUUUUAUCCUGAAAAUGCUGAGGAGGAGCUA: 0.213 ratio
GUCUUGCUCAGCACGUACCUGAUAGUCCUCCUUGUUCUCCUGGCAGUUAUUAUAUGCACCGUGUUGGCCAUCGUGUGUGUCAGCAUGAGAGGAACCAUUUGUAACCCUGGACCUCGGAAG: 0.218 ratio
CAGCAGACCUGCCCACUGUGCAAAUUCAACGUCCUGGGGAACCGCUACUCCGAUGAUUAGCUGCCCAGCUGGACUCUGCACAUGGGGAUGGACCCUUCCUGCCUGCACCCCGGUCCUCAG: 0.0805 ratio
GAGGCCCCGGAACCCGAGCUGGAGCUGAAGCGCAGGCUGCGGGCGCGGAGUCGGGAGGCUGAGUGUUCAUUCCAGCAUGUCGGAAGGGGAGUCCCAAACAGUAGUCAGCAGUGGCUCAGA: 0.162 ratio
CAGGGUCCCAAGACCAUUGACCAGAUCCAUAAGGAGGCUGAGAUGGAAGAACAUCGAGAGCACAUCAAAGUGCAGCAGCUCAUGGCCAAGGGCAGUGACAAGCGUCGGGGCGGUCCUCCA: 0.0533 ratio
AUGUAGUGUGUGCACUUGUGCAGAAUGAGAAGCUUCCCAUGAACAUUUGAACUGAGACGGGGCAGAGGACAGAUCCCUCCCUGUGAAAGAAUUGUCAGUAAGUGAAGUGCUUUCAUCCCA: 0.112 ratio

Block 2
Target: Sal-like protein 4, full length isoform A (SALL4, Homo sapiens, UniProt Q9UJQ4, residues 1-1053)
Chain of UniProt Q9UJQ4 (whole entry, looked up): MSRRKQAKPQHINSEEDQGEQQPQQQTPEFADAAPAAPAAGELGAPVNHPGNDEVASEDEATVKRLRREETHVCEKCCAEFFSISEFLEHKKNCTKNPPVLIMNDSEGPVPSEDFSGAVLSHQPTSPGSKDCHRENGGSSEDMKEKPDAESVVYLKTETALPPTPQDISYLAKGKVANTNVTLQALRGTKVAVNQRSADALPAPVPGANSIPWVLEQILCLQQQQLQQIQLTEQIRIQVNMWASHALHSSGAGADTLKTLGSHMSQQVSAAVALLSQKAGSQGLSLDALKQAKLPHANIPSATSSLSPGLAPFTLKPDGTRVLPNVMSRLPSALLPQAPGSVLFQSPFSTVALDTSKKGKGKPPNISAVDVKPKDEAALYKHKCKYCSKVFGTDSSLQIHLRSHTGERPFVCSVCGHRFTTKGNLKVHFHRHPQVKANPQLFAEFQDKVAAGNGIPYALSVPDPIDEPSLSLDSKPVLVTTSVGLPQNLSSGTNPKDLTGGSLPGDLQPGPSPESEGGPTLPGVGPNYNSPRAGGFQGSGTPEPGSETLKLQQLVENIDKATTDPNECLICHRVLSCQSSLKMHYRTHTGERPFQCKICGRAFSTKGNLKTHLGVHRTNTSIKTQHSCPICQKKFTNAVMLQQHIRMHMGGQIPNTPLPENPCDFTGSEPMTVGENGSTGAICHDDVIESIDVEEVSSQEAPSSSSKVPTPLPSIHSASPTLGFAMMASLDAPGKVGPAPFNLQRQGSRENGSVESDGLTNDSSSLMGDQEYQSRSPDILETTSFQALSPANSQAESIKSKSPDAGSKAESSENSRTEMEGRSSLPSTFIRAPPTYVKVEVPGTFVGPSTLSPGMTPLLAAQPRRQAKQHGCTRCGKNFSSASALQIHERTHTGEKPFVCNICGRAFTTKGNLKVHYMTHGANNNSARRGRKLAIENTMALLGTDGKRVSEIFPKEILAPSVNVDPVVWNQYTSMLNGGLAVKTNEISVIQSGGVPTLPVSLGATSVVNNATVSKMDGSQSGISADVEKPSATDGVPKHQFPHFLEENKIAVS
Technique: universal PBM
Form: double-stranded DNA, one strand shown
Matrix: in vitro
Tested at: 600 nM
Setting: 8-mer, flanks averaged, mean of replicates
Direction: higher = stronger binding
Endpoint: E-score
GAACCTAC: -0.064
ATTGTGGA: 0.205
CTCCCGGC: -0.317
GATTGAAA: 0.217
GTAGCAAA: 0.1
AAGAGTTC: -0.155
CTGGCGCA: -0.234
CCGCTCCG: -0.253
AGAATAAT: 0.248
AAAATCGT: 0.247
GCGGAGCA: -0.187
AGATTAGG: -0.00756
CACACATC: -0.13
GTACGGAC: -0.133
ACGAGAAC: -0.0335
CGGTGGGA: -0.305
TCTTGGAA: 0.149
CACGGGCC: -0.435
AGAGCAGC: -0.0663
ACTGATTC: 0.0736
CGGCGCCC: -0.341
AGGCCTAC: -0.143
AACACTGG: 0.0822
ACGATGTC: -0.162
CTATCGGA: 0.055

Block 3
Target: CCND1, cyclin fold, Cln2 fusion (human)
Technique: yeast growth competition, sequencing
Matrix: yeast
Setting: weak parent motif
Baseline: not given
Direction: higher = stronger binding
Endpoint: normalised enrichment score
Parent: REV3L docking peptide (human); PPVIIKYIIINRF; partner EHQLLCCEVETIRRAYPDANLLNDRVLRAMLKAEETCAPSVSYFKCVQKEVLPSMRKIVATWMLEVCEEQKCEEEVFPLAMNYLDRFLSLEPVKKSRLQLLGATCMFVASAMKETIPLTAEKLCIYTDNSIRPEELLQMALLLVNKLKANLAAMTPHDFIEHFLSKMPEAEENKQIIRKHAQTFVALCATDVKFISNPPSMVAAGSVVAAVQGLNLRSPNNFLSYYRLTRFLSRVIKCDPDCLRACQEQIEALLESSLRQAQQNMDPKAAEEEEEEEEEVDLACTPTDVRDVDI
I9A: 0.0994
R12A: 0.00587
I5A: -0.00423
V3A: 0.528
K6A: -0.432
I8A: 0.252
P2A: 0.279

Block 4
Target: Histone acetyltransferase KAT6A, winged helix 1, GST fusion (KAT6A, Homo sapiens, UniProt Q92794, residues 1-85)
Technique: protein binding microarray
Form: double-stranded DNA, one strand shown
Matrix: in vitro
Tested at: not given
Setting: 8-mer, flanks averaged, mean of 2 arrays, mostly near background
Baseline: not given
Direction: higher = stronger binding
Endpoint: E-score
Target sequence (chain): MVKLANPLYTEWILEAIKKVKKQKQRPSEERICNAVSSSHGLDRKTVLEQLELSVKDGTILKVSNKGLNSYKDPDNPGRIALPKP
CGTTATGC: 0.0134
AACGGTGA: 0.117
GCAGCGAA: 0.0276
CGACGAGA: -0.196
CAGGAACA: -0.274
CGGAGCCC: 0.0186
CCTGAGCC: -0.0728
GCCTAAGA: -0.0256
ACTTGTCC: 0.104
AACCATTA: -0.08
GGCCGCCC: 0.384
ATGTGTGC: -0.0191
CGTTTCCC: 0.0927
ATCGTAAA: -0.203
AGTCAACT: -0.218
AAGGTGGT: -0.163
GAATCTAA: -0.0242
GATGCGCA: 0.287
CCTAGGAC: -0.314
TAAGAGAA: -0.138
AAACAGGT: -0.0455
ACACCATG: -0.0927
CTGGCACC: -0.154
CCTCCGAC: 0.0647
AACTATCC: -0.0104

Block 5
Molecule: PhoQ, residues 284 288 289 292 302 303 AAQSYM
Technique: Sort-seq
Refers to: YFP reporter
Matrix: E. coli
Setting: PhoQ-PhoP variant library
Added: 10 µM Mg2+
Baseline: high Mg2+ state
Direction: higher = stronger signaling
Endpoint: fold induction
PhoP, residues 12 14 15 18 19 VGHWL (Escherichia coli, UniProt P23836): 3.24
PhoP, residues 12 14 15 18 19 LHHYF (Escherichia coli, UniProt P23836): 12
PhoP, residues 12 14 15 18 19 NFFVT (Escherichia coli, UniProt P23836): 12.9
PhoP, residues 12 14 15 18 19 TPWTL (Escherichia coli, UniProt P23836): 1.17

Block 6
Target: Ras GTPase-activating protein-binding protein 1, full length (G3BP1, Homo sapiens, UniProt Q13283)
Chain of UniProt Q13283 (whole entry, looked up): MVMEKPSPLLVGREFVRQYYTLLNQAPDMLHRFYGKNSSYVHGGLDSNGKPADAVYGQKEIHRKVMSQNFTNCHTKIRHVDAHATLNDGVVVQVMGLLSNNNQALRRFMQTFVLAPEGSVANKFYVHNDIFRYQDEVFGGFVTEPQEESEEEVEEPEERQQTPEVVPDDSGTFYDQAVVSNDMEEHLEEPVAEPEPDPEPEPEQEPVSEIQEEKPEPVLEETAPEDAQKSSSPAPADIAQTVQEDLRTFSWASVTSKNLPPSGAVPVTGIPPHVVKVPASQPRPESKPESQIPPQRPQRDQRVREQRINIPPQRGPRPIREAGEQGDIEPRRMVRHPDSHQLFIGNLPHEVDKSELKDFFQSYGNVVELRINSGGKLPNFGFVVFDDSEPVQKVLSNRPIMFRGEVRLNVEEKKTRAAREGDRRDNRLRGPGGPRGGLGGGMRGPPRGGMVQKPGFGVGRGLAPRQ
Technique: RNA Bind-n-Seq
Form: RNA
Matrix: in vitro
Tested at: 200 nM
Setting: whole 134-nt RNA, ends assumed
Added: 150 mM LiCl
Baseline: input library
Direction: higher = stronger binding
Endpoint: log2 enrichment
All molecules: 7-deaza-guanosine replaces G
Shared flanks, not repeated: GGGAGUUCUACAGUCCGACGAUC … UGGAAUUCUCGGGUGUCAAGG
ACCAUGCAGGUGGUCAUCUUUGGGAAGUGGGGCAAGGGGGGGAUAGGGAGGGGGGUAACACUUUGGGAACAGGUGGUCCCAGGUCGUUUC: 0.659
UCAAGUCCUGUGCUACACAUCGUAUGUACCGAAUCGGUGGAAAAAGGUUUUUGGAAAGUAUUAUGUUACGCCGUUCGGAUCUGCACUUCC: -0.938
GCAGGAAGUAAAAACAAAUGGAAAUGCUUCGGAUAGUGGCAGGGGUGGGGGUUGCUAAGGAAAGGGUGGGAUGGGAAAGGGUAAAGAGUU: 0.335
GCAGGAAGUAAAAACAAAUGGAAAUGCUUCGGAUAGUGGCAGGGGUGGGGGUUGCUAAGUAAAGGGUGGGAUGGGAGUGGGUAAAGAGUU: 0.16
ACCAUGCAGGUGGGCAUCUUUGGGAAGUGCGGCAAGGGGGGGAUAGGGAGGGGGGUAACACUUUGGGAACAGGUGGUCCCAGGUCGUUUC: 0.232
GGGACGUCAGCAUCGGCAUCAAGUGUGCCCCUGGAGUGGUAGGCCCCGCCGAAGCUGACAUCGACUUCGACAUCAUCCGCAAUGACAAUG: -2.17
GUCCUGUGCUACACAUCGUAUGUACCGAAUCGGUUUUUUGGGUUUUUUGGUUUUUUGGAAAGUAUUAUGUUACGCCGUUCGGAUCUGCAC: -1.14
UGGCCCUGGUGGCAUGCGGGGAGGAAGAGGUGGCCUCAUGGAUCGUGGUGGUCCCGGUGGAAUGUUCAGAGGUGGCCGUGGUGGAGACAA: 0.391
CCUCAAGUCCUGUGCUACACAUCGUAUGUACCGAAUCGGGGUGGGGUGGUGGGAAAGUAUUAUGUUACGCCGUUCGGAUCUGCACUUCCA: -0.271
GUCCUGUGCUACACAUCGUAUGUACCGAAUCGGGGAGGGGUUUUUGGGGAAAAAGGGGAAAGUAUUAUGUUACGCCGUUCGGAUCUGCAC: 0.309
AGUCCUGUGCUACACAUCGUAUGUACCGAAUCGGAAAAAAGGAAAAAAGGAAAAAAGGAAAGUAUUAUGUUACGCCGUUCGGAUCUGCAC: -1.15
